# Assay results pooled from the literature.
# A part holds a random share of what one study measured. Substitutions count along the parent as printed.

# Block 1 — technique: protein binding microarray; form: double-stranded DNA, one strand shown; matrix: in vitro; concentration: not given; reference: not given; direction: higher = stronger binding
# Target: Histone acetyltransferase KAT6A, both winged helices, GST fusion (KAT6A, Homo sapiens, UniProt Q92794, residues 1-181)
# Setting: 8-mer, flanks averaged, mean of 2 arrays, mostly near background
# Construct (chain): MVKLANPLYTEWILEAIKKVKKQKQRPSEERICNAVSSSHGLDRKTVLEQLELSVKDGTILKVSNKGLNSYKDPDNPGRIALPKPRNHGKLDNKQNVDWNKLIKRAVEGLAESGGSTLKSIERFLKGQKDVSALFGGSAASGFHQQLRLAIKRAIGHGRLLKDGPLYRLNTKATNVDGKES
Oligonucleotide,E-score
CAGGTCCA,-0.169
ACCTCTTG,-0.131
GGGAAGTA,-0.00968
ATATCCGA,0.109
AGTGGACC,-0.0471
AACGCAAT,0.248
GCACGGAC,0.272
CCTTCGCG,0.171
CTTGATAC,-0.0868
ACGAAAAT,-0.06
CCCCGCGA,0.233
CCGGGATA,0.158
ATTCCGTG,0.244

# Block 2 — technique: DHFR PCA, deep sequencing; matrix: yeast; together with: (+)-ABA 17 µM; reference: wild-type fitted maximum; direction: higher = stronger binding
# Target: ABI1, truncated, D143A, DHFR fusion (Arabidopsis thaliana)
# Setting: methotrexate growth selection, single substitutions
# Parent: PYL1, truncated, DHFR fusion (Arabidopsis thaliana); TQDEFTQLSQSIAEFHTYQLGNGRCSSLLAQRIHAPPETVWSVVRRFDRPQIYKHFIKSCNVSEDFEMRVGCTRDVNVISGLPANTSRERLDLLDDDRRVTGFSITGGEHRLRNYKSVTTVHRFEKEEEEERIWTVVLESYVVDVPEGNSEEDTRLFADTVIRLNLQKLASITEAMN; partner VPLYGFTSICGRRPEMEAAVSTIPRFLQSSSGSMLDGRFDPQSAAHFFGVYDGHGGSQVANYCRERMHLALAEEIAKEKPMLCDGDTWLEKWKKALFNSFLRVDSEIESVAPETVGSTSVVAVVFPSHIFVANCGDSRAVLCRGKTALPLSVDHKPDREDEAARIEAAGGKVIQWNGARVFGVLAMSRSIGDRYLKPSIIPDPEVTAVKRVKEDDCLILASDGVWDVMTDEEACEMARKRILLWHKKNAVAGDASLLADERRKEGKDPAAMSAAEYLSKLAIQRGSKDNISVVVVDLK
Change,relative binding score
N149P,-2.17%
T160P,-19.2%
R32G,40.2%
S26V,52.1%
R123V,58.2%
L166H,58.5%
Q51G,52.3%
Q7G,83.4%

# Block 3 — technique: RNA Bind-n-Seq; form: RNA; matrix: in vitro; concentration: 200 nM; setting: whole 134-nt RNA, ends assumed; together with: 150 mM KCl; reference: input library; direction: higher = stronger binding
# Target: Fragile X messenger ribonucleoprotein 1, C-terminal low-complexity region (Fmr1, Mus musculus, UniProt P35922)
# Shared flanks, not repeated: GGGAGUUCUACAGUCCGACGAUC … UGGAAUUCUCGGGUGUCAAGG
Oligonucleotide,log2 enrichment
GCAGGAAGUAAAAACAUAUGGAAAUGCUUCGGAUAGUGGCAGGGGUGGGGGUUGCUAAGGAAAGGGUGGGAUGGGAGUGGGUAAAGAGUU,0.195
CACAGACAACACGCACCCACACAGACACAGAGGGAAGGGGUUGGGAUGGGGACAGGGUGCACAGCAGGGCGGGGUAGGACCCCAGCCCCA,1.22
CUCAAGUCCUGUGCUACACAUCGUAUGUACCGAAUCGGAAGGGAAGGGGAAGGAAAGUAUUAUGUUACGCCGUUCGGAUCUGCACUUCCA,-0.0412
AUUAAGGUCACCGUUGCAGGCCUGGCUGGAAAAGACCCAGUACAGUGUAGCCGUGAUGUGGUCAUUUGUCCUGAUGCCAGCCUUGAAGAU,-0.974
AGUCCUGUGCUACACAUCGUAUGUACCGAAUCGGGGAAAGGGGAAAGGGGAAAGGGGAAAGUAUUAUGUUACGCCGUUCGGAUCUGCACU,0.285
AAGUCCUGUGCUACACAUCGUAUGUACCGAAUCGGGGAAAGGGGUUUGGGGAGGGGAAAGUAUUAUGUUACGCCGUUCGGAUCUGCACUU,0.91
CUCAAGUCCUGUGCUACACAUCGUAUGUACCGAAUCGGGUGGGAAAGGGUGGGAAAGUAUUAUGUUACGCCGUUCGGAUCUGCACUUCCA,1.1
UCAAGUCCUGUGCUACACAUCGUAUGUACCGAAUCGGGGAGGGGUGGGGAGGGGAAAGUAUUAUGUUACGCCGUUCGGAUCUGCACUUCC,1.31
CCUCAAGUCCUGUGCUACACAUCGUAUGUACCGAAUCGGAAGGAAGGGAAGGAAAGUAUUAUGUUACGCCGUUCGGAUCUGCACUUCCAG,0.275

# Other studies, line by line
Substance,target,test,system,setting,scale,measurement,value
"PhoQ, residues 284 288 289 292 302 303 TSTLRA","PhoP, residues 12 14 15 18 19 STWGI (Escherichia coli, UniProt P23836)","Sort-seq, item: YFP reporter",E. coli,"PhoQ-PhoP variant library, together with: 10 µM Mg2+","reference: high Mg2+ state, higher = stronger signaling",fold induction,3.45

# For quick reference, copied from above (block 2):
Change,relative binding score
S26V,52.1%
R123V,58.2%
L166H,58.5%
Q51G,52.3%
Q7G,83.4%
